Experimental data of several laboratories.
Each line is one published result; not all experiments were run side by side. Several values in a cell are separate wells, animals, samples, runs or records. ± gives the spread as reported.
ADRA2C: Alpha-2C adrenergic receptor (ADRA2C, Homo sapiens, UniProt P18825)
UCHL1: Ubiquitin carboxyl-terminal hydrolase isozyme L1 (UCHL1, Homo sapiens, UniProt P09936)
Voltage-dependent P/Q-type calcium channel subunit alpha-1A: Voltage-dependent P/Q-type calcium channel subunit alpha-1A (Homo sapiens, UniProt O00555)
TOP2A: DNA topoisomerase 2-alpha (TOP2A, Homo sapiens, UniProt P11388)
T1: G-quadruplex DNA (Homo sapiens); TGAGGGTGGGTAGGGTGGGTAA
T2: G-quadruplex DNA (Homo sapiens); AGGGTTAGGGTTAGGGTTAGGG

| SMILES | target or system | assay | test system | setting | scale | measurement | result |
| --- | --- | --- | --- | --- | --- | --- | --- |
| Nc1ncnc2c1ncn2[C@@H]1O[C@H](COP(=O)(O)OP(=O)(O)O)[C@@H](O)[C@H]1O | GUK1 (Homo sapiens, UniProt Q16774, S18A) | binding, ITC | – | together with: GMP | – | -TΔS | 0.14 kcal/mol |
| C[C@H](CCC(C)(C)O)[C@H]1CC[C@H]2[C@@H]3CC=C4C[C@@](C)(O)CC[C@]4(C)[C@H]3CC[C@]12C | Glutamate NMDA receptor; GRIN1/GRIN2A (Homo sapiens, UniProt Q05586+Q12879) | ion current, positive allosteric modulator, two-electrode voltage clamp | Xenopus oocytes | 10 µM, wild type, together with: 1000 µM glutamate, glycine | relative to: absence of compound | current potentiation | 123 ± 3.3% |
| O=C1Nc2c(ccc(Cl)c2Cl)C1=NO | KCNN4/CALM1 (Homo sapiens, UniProt O15554+P0DP23, R287A) | ion current, activator, whole-cell patch clamp | – | R287A mutant | – | Hill coefficient | 1.5 |
| Cc1ccccc1C1CC(=O)c2c(C)nc(N)nc2C1 (centres unmarked) | Leucine-rich repeat serine/threonine-protein kinase 2, WD40 domain (LRRK2, Homo sapiens, UniProt Q5S007) | binding, affinity selection mass spectrometry | – | – | relative to: other proteins in batch | log fold enrichment | 0.261 |
| CCOC(=O)C1(NS(=O)(=O)c2cc(Cl)cc(Cl)c2O)CC2(CCC2)C1 | malate dehydrogenase | enzyme activity, inhibitor | – | 200 µM, pH 7.0, 1% DMSO, aggregation counter-screen | – | remaining activity | 104% |
| CC1CS(=O)(=O)CCN1/N=C/c1ccc([N+](=O)[O-])o1 (centres unmarked) | Trypanosoma cruzi | reporter mRNA translation, Renilla luciferase reporter | cell extract | 40 µM | – | inhibition | 0.2% |
| Cc1cc(Oc2ncccc2CN2CCN(c3ccccc3[N+](=O)[O-])CC2)ccc1-c1c(C)c(=O)[nH]c(=O)n1C | ADRA2C | binding, radioligand binding | – | together with: [3H]rauwolscine | relative to: Ki alpha2A over Ki alpha2C | selectivity ratio | 6 |
| COc1cc(C=O)cc(Cl)c1OS(=O)(=O)c1ccc(NC(C)=O)cc1 | UCHL1 | covalent, intact protein LC-MS | – | 12.5 µM | – | labelling | 11.9% |
| N[C@@H](CCC(=O)O)C(=O)O | glc-2 (Caenorhabditis elegans, UniProt Q17328, R340A/R342A/S341A/T283S) | two-electrode voltage clamp | Xenopus laevis oocytes | – | – | mean current | 0.6 µA |
| Nc1ncnc2c1ncn2[C@@H]1O[C@H](COP(=O)(O)CP(=O)(O)OP(=O)(O)O)[C@@H](O)[C@H]1O | P2X purinoceptor 1 (P2RX1, Homo sapiens, UniProt P51575, D170A) | calcium influx | – | 3.16 µM | relative to: ionomycin response | calcium influx | 24.6% and 17% and 17.6% and 18.7% |
| O=C(CCl)NCc1ccc(Cl)c(C(F)(F)F)c1 | UCHL1 | covalent, intact protein LC-MS | – | 12.5 µM | – | labelling | 11.3% |
| O=C(O)c1ccc([N+](=O)[O-])cc1 | BEST1 (Homo sapiens, UniProt O76090) | whole-cell patch clamp | HEK293 transiently expressing channel | concentration not given, membrane potential -80 mV | – | current density | -33.3 pA/pF and -57.3 pA/pF and -101 pA/pF and -80.1 pA/pF and -76.9 pA/pF and -55 pA/pF and -34.2 pA/pF |
| O=C(O)C1CCCNC1 (centres unmarked) | Sodium- and chloride-dependent taurine transporter (SLC6A6, Homo sapiens, UniProt P31641, Y138A) | binding, microscale thermophoresis | – | 61 nM, room temperature, together with: 50 nM labelled protein | higher = more binding | normalised MST signal | -0.00497 |
| CC(=O)c1cccc(CN2CCCC(CCC(=O)NCc3ccc(F)c(F)c3)C2)c1 (centres unmarked) | Trypanosoma cruzi | reporter translation, Renilla luciferase mRNA translation | cell-free extract | 40 µM | relative to: DMSO | inhibition | -11.9% |
| CC[C@H]1OC(=O)[C@H](C)[C@@H](O[C@H]2C[C@@](C)(OC)[C@@H](O)[C@H](C)O2)[C@H](C)[C@@H](O[C@@H]2O[C@H](C)C[C@H](N(C)C)[C@H]2O)[C@](C)(OC)C[C@@H](C)C(=O)[C@H](C)[C@@H](O)[C@]1(C)O | uncharacterized protein (Saccharopolyspora erythraea, UniProt A4F7P9) | – | – | concentration not given, pH 7.6, 20 °C, together with: p-nitrophenyl-β-D-glucopyranoside | – | apparent Km | 3.32 mM |
| C=CC(=O)N1CCC(COCC(=O)N2CCN(c3nc(-c4cnc(N)nc4C(F)F)nc(N4CCOC[C@@H]4C)n3)CC2)CC1 | Hepatocyte growth factor receptor (MET, Homo sapiens, UniProt P08581, M1250T) | KINOMEscan | – | 1 µM | relative to: DMSO control | remaining binding | 97% |
| CCC(=O)NC[C@@H]1C[C@H]1c1cccc2c1CCO2 | Voltage-dependent P/Q-type calcium channel subunit alpha-1A | ion current, antagonist, automated patch clamp | – | – | – | IC30 | > 30000 nM |
| Cc1cc(Oc2ncccc2CN2CCN(Cc3ccc(F)cc3)CC2)ccc1-c1c(C)c(=O)[nH]c(=O)n1C | ADRA2C | binding, radioligand binding | – | together with: [3H]rauwolscine | relative to: Ki alpha2B over Ki alpha2C | selectivity ratio | 1 |

| SMILES | target or system | assay | test system | setting | scale | measurement | result |
| --- | --- | --- | --- | --- | --- | --- | --- |
| O=c1nc(SCc2cc(F)cc(C(F)(F)F)c2)nc(SCc2ccc3nc(OCCN4CCOCC4)ccc3c2)[nH]1 | TOP2A | DNA cleavage | – | 125 µM, replicate 1 | – | linear DNA | 0% |
| c1cc(-c2nc(N3CCNCC3)c3ccccc3n2)nc(-c2nc(N3CCNCC3)c3ccccc3n2)c1 | T1, G-quadruplex DNA (Homo sapiens) | thiazole orange displacement, competitor, FID | – | 0.25 µM DNA, pH 7.4, 25 °C, KCl 100 mM, together with: thiazole orange 0.50 µM | – | IC50 | 589 nM |
| O=C(CCl)Cc1ccc(F)cc1Cl | UCHL1 | covalent, intact protein LC-MS | – | 12.5 µM | – | labelling | 31.6% |
| O=c1cc(-c2ccc([N+](=O)[O-])cc2)[nH]c2c(-c3ccc(Cl)cc3)c(Cc3ccccc3)nn12 | ATP synthase mitochondrial F1 complex assembly factor 2 (ATPAF2, Homo sapiens, UniProt Q8N5M1) | thermal stability, binder, thermal proteome profiling | RD, cell lysate | 50 µM, 0.5% DMSO | relative to: DMSO vehicle | melting temperature shift | 2.6 °C |
| O=C(C1=C(O)C(=O)N(c2ccc(O)c(C(=O)O)c2)C1c1ccc2c(c1)COC2=O)c1ccccc1 (centres unmarked) | ESR1/YWHAZ, with 14-3-3 zeta (Homo sapiens, UniProt P03372+P63104) | 14-3-3ζ/ERα peptide binding, stabiliser, fluorescence polarization | – | – | – | EC1.2 | 63 µM |
| C[C@@H](c1ccc(-n2cnc3c(N)ncnc32)cc1)N1CCc2nn(C)c(Cc3ccccc3)c2C1=O | Hepatocyte growth factor receptor (MET, Homo sapiens, UniProt P08581) | KINOMEscan | – | 0.1 µM | relative to: DMSO control | remaining binding | 71% |
| CC12CC3CC(C)(C1)CC(N)(C3)C2 | Voltage-dependent P/Q-type calcium channel subunit alpha-1A | ion current, antagonist | HEK293 | 30 µM | – | inhibition | 32% |
| O=S(=O)(NCC[S+]([O-])c1ccccc1F)c1cc(Cl)cc(Cl)c1O (centres unmarked) | malate dehydrogenase | enzyme activity, inhibitor | – | 200 µM, pH 7.0, 1% DMSO, aggregation counter-screen | – | remaining activity | 89% |
| Cc1cc(C(=O)CCl)c(F)cc1F | UCHL1 | covalent, intact protein LC-MS | – | 12.5 µM | – | labelling | 20.3% |
| CO[C@@H]1O[C@@H](C)[C@@H](O)[C@@H](O)[C@@H]1O | fleA (Aspergillus fumigatus, UniProt Q4WW81) | ITC | – | – | – | ΔG | -6 kcal/mol |
| CCCCCCCCC(=O)c1cc(O)c(O)c(O)c1 | Hepatocyte nuclear factor 4-alpha (HNF4A, Homo sapiens, UniProt P41235) | reporter gene, Gal4 hybrid reporter | – | 10 µM | relative to: vehicle | activation | 1.15 fold |
| [Cl][Fe]([Cl])[Cl] | Serine protease 1 (PRSS1, Bos taurus, UniProt P00760) | enzyme activity | – | concentration not given, pH 8.0, 25 °C, together with: benzoyl-arginine ethyl ester | – | BAEE hydrolysis | no effect |
| CCCCn1/c(=C/C=C/C2=[N+](CCC[N+](C)(C)C)c3ccc(Br)cc3C2(C)C)c2cccc3cccc1c32 | T2, G-quadruplex DNA (Homo sapiens) | CD titration | – | KCl 50 mM, strong ICD | – | binding | binds |
| COc1cc(Nc2ncc3c(n2)-c2ccc(Cl)cc2C(c2c(F)cccc2OC)=NC3)ccc1C(=O)O | PKN1 | kinase activity | – | 1 µM | – | remaining activity | 94% |
| CCN1CCC[C@H]1CNC(=O)c1c(O)c(Cl)cc(Cl)c1OC | Opsin-5 (OPN5, Homo sapiens, UniProt Q6U736) | β-arrestin recruitment, TANGO luminescence, measured: OPN5 | – | concentration not given | relative to: basal luminescence | log2 fold change | 0.104 |
| O=c1nc(SCc2cc(F)cc(C(F)(F)F)c2)nc(SCc2ccc3nc(Cl)ccc3c2)[nH]1 | TOP2A | ATPase activity | – | 7.8 µM, together with: ATP 0.075 mM | – | ATP hydrolysis rate | 0.695 µM/min and 0.736 µM/min |
| COc1cc(/C=C/c2ccc(O)cc2)cc(OC)c1 | O-methyltransferase (Sorghum bicolor, UniProt A0A1B6PFV1) | ITC | – | together with: SAH+ | – | -TΔS | 0.37 kcal/mol |

Some of these lines once more:
| SMILES | target or system | assay | test system | setting | scale | measurement | result |
| --- | --- | --- | --- | --- | --- | --- | --- |
| O=c1nc(SCc2cc(F)cc(C(F)(F)F)c2)nc(SCc2ccc3nc(Cl)ccc3c2)[nH]1 | TOP2A | ATPase activity | – | 7.8 µM, together with: ATP 0.075 mM | – | ATP hydrolysis rate | 0.695 µM/min and 0.736 µM/min |
| O=C(CCl)NCc1ccc(Cl)c(C(F)(F)F)c1 | UCHL1 | covalent, intact protein LC-MS | – | 12.5 µM | – | labelling | 11.3% |
